{"data": "Published values pooled from the literature", "ACE2": "Angiotensin-converting enzyme 2 (ACE2, Homo sapiens, UniProt Q9BYF1)", "cqsS": "CAI-1 autoinducer sensor kinase/phosphatase CqsS (cqsS, Vibrio cholerae serotype O1, UniProt Q9KM66)", "note": "Each line is one published result; not all experiments were run side by side. Numbers after ± are the reported error."}
{"SMILES": "CC(C)C[C@H](NC(=O)[C@H](CCCCN)NC(=O)CNC(=O)[C@H](Cc1c[nH]cn1)NC(=O)[C@H](CCCNC(=N)N)NC(=O)[C@H](CC(C)C)NC(=O)[C@H](Cc1ccc(O)cc1)NC(=O)[C@H](CCCNC(=N)N)NC(=O)[C@H](Cc1ccc(O)cc1)NC(=O)[C@H](CCCCN)NC(=O)[C@@H](N)Cc1ccc(O)cc1)C(=O)N[C@@H](CCCNC(=N)N)C(N)=O", "target": "ACE2", "test": "binding", "setting": "pH 8", "endpoint": "kon", "result": "1800 M⁻¹ s⁻¹"}
{"SMILES": "CCn1ncc2ccc(NS(=O)(=O)c3cc([N+](=O)[O-])cc(Cl)c3F)cc21", "target": "kasA (Mycobacterium tuberculosis, UniProt P9WQD9)", "test": "thermal stability, nanoDSF", "endpoint": "Tm decrease", "result": "~1 °C"}
{"SMILES": "Cc1cc(S(=O)(=O)N(C)CC(=O)Nc2ccn(C)c(=O)c2)c2[nH]ncc2c1", "target": "Dihydrolipoyl dehydrogenase (Mycobacterium tuberculosis, UniProt P9WHH9)", "test": "SPR", "setting": "together with: NADH", "how to read": "baseline: without NADH", "endpoint": "complex half-life increase", "result": "40 fold"}
{"SMILES": "CC(C)C[C@H](NC(=O)[C@H](CO)NC(=O)[C@H](CC(C)C)NC(=O)[C@H](CCC(N)=O)NC(=O)[C@H](CC(N)=O)NC(=O)[C@H](CCC(N)=O)NC(=O)[C@H](CC(=O)O)NC(=O)CCCCCNC(=O)c1ccc2c(c1)C(=O)OC21c2ccc(O)cc2Oc2cc(O)ccc21)C(=O)N[C@@H](Cc1ccccc1)C(=O)O", "target": "Beta sliding clamp (dnaN, Bacillus subtilis, UniProt P05649)", "setting": "concentration not given, unit not given", "how to read": "baseline: Escherichia coli clamp", "endpoint": "binding weakening", "result": "~5"}
{"SMILES": "CCCCC(=N)NCc1ccc2[nH]c3c(c2c1)CC1(O)C2Cc4ccc(O)c5c4C1(CCN2CC1CC1)C3O5 (stereo not shown)", "target": "OPRK1 (Homo sapiens, UniProt P41145)", "test": "[3H]diprenorphine binding", "how to read": "baseline: Ki δ over Ki κ", "endpoint": "selectivity ratio", "result": 5}
{"SMILES": "O=C1CC(=O)N(c2ccccc2)c2cc(Cl)ccc2N1", "target": "Gabrg2/Gabra2, with β3 subunit (Rattus norvegicus, UniProt P18508+P23576)", "test": "GABA current potentiation, positive allosteric modulator, whole-cell patch clamp", "test system": "HEK293", "setting": "together with: GABA at EC10", "how to read": "baseline: Emax α2 over α1", "endpoint": "selectivity ratio", "result": "1.77 ± 0.28"}
{"SMILES": "CN1CCc2cc(Br)c(O)cc2C(c2ccc(NC(=O)CCOCCOCCOCCOCCn3cc(COCCOCCOCCOCCOCCC(=O)NCCc4c[nH]cn4)nn3)cc2)C1 (stereo not shown)", "target": "DRD1 (Homo sapiens, UniProt P21728)", "test": "binding, association-competition", "setting": "together with: GDA 120 nM", "endpoint": "residence time", "result": "5 to 8 min"}
{"SMILES": "CCOC(=O)C1C(OC(c2ccc(Cl)cc2)c2ccc(Cl)cc2)CC2CCC1N2C (single isomer, unassigned)", "target": "rat central benzodiazepine site", "test": "binding, radioligand displacement", "setting": "inactive if below 75% at 10000 nM, together with: [3H]flunitrazepam", "endpoint": "Ki", "result": "inactive"}
{"SMILES": "CC(C)C[C@H](NC(=O)[C@@H]1CCCN1C(=O)[C@H](Cc1c[nH]c2ccccc12)NC(=O)[C@H](Cc1ccc(O)cc1)NC(=O)[C@@H](N)CO)C(=O)N[C@@H](CC(N)=O)C(=O)N[C@@H](CC(=O)O)C(=O)N[C@@H](Cc1ccc(O)cc1)C(=O)NCC(=O)N[C@@H](Cc1ccccc1)C(=O)N[C@@H](Cc1ccc(O)cc1)C(=O)N[C@H](C(N)=O)[C@@H](C)O", "target": "ACE2", "setting": "pH 8", "endpoint": "association rate constant", "result": "370 M⁻¹ s⁻¹"}
{"SMILES": "C/C=C(\\N)C(=O)CCCCCCCCCCCC", "target": "cqsS", "test": "bioluminescence, agonist", "test system": "Vibrio cholerae", "how to read": "baseline: Ea-CAI-1 at 100%", "endpoint": "EC50", "result": "38%"}
{"SMILES": "CC(C)C[C@H](NC(=O)OCc1ccccc1)C(=O)N[C@@H](C[C@@H]1CCNC1=O)C(O)S(=O)(=O)O (stereo partly shown)", "target": "Replicase polyprotein 1ab, main protease (Human coronavirus OC43, UniProt P0C6X6)", "test": "thermal shift", "how to read": "higher = stronger binding", "endpoint": "ΔTm", "result": "13.9 ± 0.81 °C"}
{"SMILES": "CCCCCn1cc(C(=O)c2ccc3ccccc3c2)c2ccccc21", "target": "CNR1 (Homo sapiens, UniProt P21554)", "test": "Gαi1 engagement, agonist, BRET", "test system": "HEK293T", "how to read": "baseline: reference agonist", "endpoint": "Emax", "result": "111 ± 5%"}
{"SMILES": "CCCCCCc1ccc(Oc2ccccc2Br)c(O)c1", "target": "inhA (Mycobacterium tuberculosis, UniProt P9WGR1)", "test": "inhibitor, progress curve global fit", "setting": "20 °C, EI* to EI isomerisation", "endpoint": "k6", "result": "0.11 ± 0.014 min⁻¹"}
{"SMILES": "O=C(O)c1ccc(/C=C2\\SC(=S)N(Cc3cccc(C(F)(F)F)c3)C2=O)cc1", "target": "NLRP3 (Homo sapiens, UniProt Q96P20)", "test": "Flag-NLRP3 and mCherry-NLRP3 interaction, inhibitor", "setting": "concentration not given", "endpoint": "NLRP3 oligomerization", "result": "inhibited"}
{"SMILES": "CC(=O)Nc1ccc(/C=N/NC(=S)Nc2cccc3cccnc23)cc1", "target": "Adenosylmethionine-8-amino-7-oxononanoate aminotransferase (Mycobacterium tuberculosis, UniProt P9WQ81)", "setting": "100 µg/mL, together with: enzyme 2 µM", "endpoint": "inhibition", "result": "> 60%"}
{"SMILES": "CC(C)C[C@H](NC(=O)[C@H](CCCNC(=N)N)NC(=O)[C@H](Cc1ccccc1)NC(=O)CN)C(=O)N[C@@H](CC(N)=O)C(=O)N[C@@H](CO)C(=O)N[C@@H](C)C(=O)N[C@@H](CO)C(=O)N[C@@H](CCCNC(=N)N)C(=O)N[C@H](C(=O)N[C@@H](C)C(=O)N[C@@H](Cc1c[nH]cn1)C(=O)NCC(=O)N[C@@H](Cc1ccc(O)cc1)C(N)=O)C(C)C", "target": "Allatotropin-related peptide receptor 1 (Aplysia californica, UniProt A0ABM0K100)", "test": "IP1 accumulation, agonist", "how to read": "baseline: compound over D2-ATRP", "endpoint": "potency ratio", "result": "~20 fold"}
{"SMILES": "CC[C@H](C)[C@H](NC(=O)[C@H](CO)NC(=O)[C@H](Cc1ccc(O)cc1)NC(=O)[C@H](CC(=O)O)NC(=O)[C@H](CO)NC(=O)[C@@H](NC(=O)[C@H](Cc1ccccc1)NC(=O)[C@@H](NC(=O)CNC(=O)[C@@H]1CCCN1C(=O)[C@H](C)NC(=O)[C@@H](N)Cc1ccc(O)cc1)[C@@H](C)O)[C@@H](C)CC)C(=O)N[C@@H](C)C(=O)N[C@@H](CCSC)C(=O)N[C@@H](CC(=O)O)C(=O)N[C@@H](CCCCN)C(=O)N[C@H](C(=O)N[C@@H](CCCNC(=N)N)C(=O)N[C@@H](CCC(N)=O)C(=O)N[C@@H](CCC(N)=O)C(=O)N[C@@H](CC(=O)O)C(=O)N[C@@H](Cc1ccccc1)C(=O)N[C@H](C(=O)N[C@@H](CC(N)=O)C(=O)N[C@@H](Cc1c[nH]c2ccccc12)C(=O)N[C@@H](CC(C)C)C(=O)N[C@@H](CC(C)C)C(=O)N[C@@H](C)C(=O)N[C@@H](CCC(N)=O)C(=O)N[C@@H](CCCCN)C(=O)NCC(=O)N[C@@H](CCCCN)C(=O)N[C@@H](CCCCN)C(=O)N[C@@H](CC(N)=O)C(=O)N[C@@H](CC(=O)O)C(=O)N[C@@H](Cc1c[nH]c2ccccc12)C(=O)N[C@@H](CCCCN)C(=O)N[C@@H](Cc1c[nH]cn1)C(=O)N[C@@H](CC(N)=O)C(=O)N[C@@H](CC(C)C)C(=O)N[C@H](C(=O)N[C@@H](CCC(N)=O)C(=O)O)[C@@H](C)O)C(C)C)[C@@H](C)CC", "target": "Gastric inhibitory polypeptide receptor (Mus musculus, UniProt Q0P543)", "test system": "COS-7", "endpoint": "Emax", "result": "57 ± 14%"}
{"SMILES": "CC(Cc1ccc(O)cc1)NCC(O)c1ccc(O)c(O)c1 (stereo not shown)", "target": "ADRB2 (Homo sapiens, UniProt P07550)", "test": "β-arrestin recruitment over cAMP production, agonist", "how to read": "baseline: isoproterenol", "endpoint": "efficacy ratio", "result": "~10"}
{"SMILES": "C/C=C(\\N)C(=O)CCCCCCCC", "target": "cqsS", "test": "bioluminescence, agonist", "test system": "Vibrio cholerae", "how to read": "baseline: Ea-CAI-1 at 100%", "endpoint": "EC50", "result": "112%"}
{"SMILES": "C=C(C)C1C2OC(=O)C1C1(O)CC3OC34C(=O)OC2C14C (stereo not shown)", "target": "Rdl (Drosophila melanogaster, UniProt P25123, A301V)", "test": "GABA-induced current, antagonist", "setting": "concentration not given", "how to read": "baseline: mutant over wild type", "endpoint": "IC50 fold increase", "result": "~1000 fold"}
{"SMILES": "CC(=O)N[C@H]1[C@@H](O)[C@H](O)[C@@H](CO)O[C@H]1O", "target": "N-acetylmannosamine kinase (nanK, Vibrio cholerae serotype O1, UniProt Q9KR61)", "test": "substrate, ADP-Glo kinase", "setting": "together with: ATP 0.1 mM", "endpoint": "kcat", "result": "54 min^–1"}
{"SMILES": "CC(C)c1nc2cc(O)ccc2c(=O)n1-c1ccc(C#N)cc1", "target": "TRPV1 (Homo sapiens, UniProt Q8NER1, Y511F)", "test": "ion current, whole-cell patch clamp", "setting": "pH 5", "how to read": "baseline: mutant over wild type", "endpoint": "IC50 ratio", "result": "5.8 fold"}
{"note": "Some of these lines once more:"}
{"SMILES": "CCCCCCc1ccc(Oc2ccccc2Br)c(O)c1", "target": "inhA (Mycobacterium tuberculosis, UniProt P9WGR1)", "test": "inhibitor, progress curve global fit", "setting": "20 °C, EI* to EI isomerisation", "endpoint": "k6", "result": "0.11 ± 0.014 min⁻¹"}
{"SMILES": "O=C(O)c1ccc(/C=C2\\SC(=S)N(Cc3cccc(C(F)(F)F)c3)C2=O)cc1", "target": "NLRP3 (Homo sapiens, UniProt Q96P20)", "test": "Flag-NLRP3 and mCherry-NLRP3 interaction, inhibitor", "setting": "concentration not given", "endpoint": "NLRP3 oligomerization", "result": "inhibited"}
